Measurements from different studies.
Each line is one published result; not all experiments were run side by side.
Organism: Candida albicans

N/C(=C\C(=O)O)CP(=O)(O)O
MIC (microbial growth, broth dilution; SC5314; 24 h): > 128 µg/mL

CCCCCC(=O)NCCCC[C@H](NC(=O)CCCCC)C(=O)N[C@@H](CCCCNC(=O)CCCCC)C(=O)NCC(=O)NCC(=O)NCC(=O)N[C@@H](CS)C(=O)N[C@@H](CCCNC(=N)N)C(=O)N[C@@H](CCCCN)C(=O)N1CCC[C@H]1C(=O)N[C@@H](CS)C(=O)N[C@@H](CCCNC(=N)N)C(=O)N[C@@H](CCCCN)C(=O)N1CCC[C@H]1C(N)=O
MIC (broth microdilution; 58288, RPMI-1640; 48 h, 30 °C): 8 µM

Cc1ccc2nc(C)c(C(=O)C(=O)NCc3ccc(N(C)C)cc3)n2c1
MIC (microbial growth, broth dilution): > 128 µM

CC[C@H](C)[C@H](NC(=O)[C@H](CCCCN)NC(=O)[C@@H](NC(=O)[C@@H](NC(=O)[C@H](CC(C)C)NC(=O)[C@H](CCCNC(=N)N)NC(=O)[C@@H](NC(=O)[C@H](CC(C)C)NC(=O)[C@H](CCCNC(=N)N)NC(=O)CNC(=O)[C@H](Cc1ccccc1)NC(=O)[C@@H](N)CCCNC(=N)N)[C@@H](C)CC)[C@@H](C)CC)C(C)C)C(=O)N[C@@H](C)C(=O)N[C@@H](CCCNC(=N)N)C(=O)N[C@@H](CCCNC(=N)N)C(=O)N[C@@H](C)C(=O)N[C@@H](Cc1c[nH]cn1)C(=O)N[C@@H](CCCNC(=N)N)C(=O)N[C@@H](C)C(=O)N[C@@H](CCCNC(=N)N)C(=O)N[C@@H](CO)C(=O)N[C@@H](C)C(=O)N[C@H](C(=O)N[C@@H](CCCCN)C(=O)N[C@@H](C)C(=O)N[C@@H](C)C(=O)N[C@@H](CO)C(=O)N[C@@H](CC(N)=O)C(=O)N[C@H](C(=O)N[C@@H](C)C(=O)N[C@@H](C)C(=O)N[C@@H](CC(C)C)C(=O)N[C@@H](C)C(=O)N[C@@H](Cc1c[nH]cn1)C(=O)NCC(=O)N[C@@H](C)C(=O)O)C(C)C)C(C)C
MIC (broth microdilution; 36 h, 35 °C): > 8.25 µM

CCCCCCCC(=O)NCCCC[C@H](NC(=O)CCCCCCC)C(=O)N[C@@H](CCCCNC(=O)CCCCCCC)C(=O)NCC(=O)NCC(=O)NCC(=O)N[C@@H](CS)C(=O)N[C@@H](CCCNC(=N)N)C(=O)N[C@@H](CCCCN)C(=O)N1CCC[C@H]1C(=O)N[C@@H](CS)C(=O)N[C@@H](CCCNC(=N)N)C(=O)N[C@@H](CCCCN)C(=O)N1CCC[C@H]1C(=O)N[C@@H](CS)C(=O)N[C@@H](CCCNC(=N)N)C(=O)N[C@@H](CCCCN)C(=O)N1CCC[C@H]1C(=O)N[C@@H](CS)C(=O)N[C@@H](CCCNC(=N)N)C(=O)N[C@@H](CCCCN)C(=O)N1CCC[C@H]1C(N)=O
MIC (broth microdilution; 58288, RPMI-1640; 48 h, 30 °C): 32 µM

Cc1ccc2nc(C)c(C(=O)NCc3ccccc3)n2c1
MIC (microbial growth, broth dilution): > 128 µM

CC[C@H](C)[C@H](NC(=O)[C@H](CCCCN)NC(=O)[C@@H](NC(=O)[C@@H](NC(=O)[C@H](CC(C)C)NC(=O)[C@H](CCCNC(=N)N)NC(=O)[C@@H](NC(=O)[C@H](CC(C)C)NC(=O)[C@H](CCCNC(=N)N)NC(=O)CNC(=O)[C@H](Cc1ccccc1)NC(=O)[C@@H](N)CCCNC(=N)N)[C@@H](C)CC)[C@@H](C)CC)C(C)C)C(=O)N[C@@H](C)C(=O)N[C@@H](CCCNC(=N)N)C(=O)N[C@@H](CCCNC(=N)N)C(=O)N[C@@H](C)C(=O)N[C@@H](Cc1c[nH]cn1)C(=O)N[C@@H](CCCNC(=N)N)C(=O)N[C@@H](C)C(=O)N[C@@H](CCCNC(=N)N)C(=O)N1CCC[C@H]1C(=O)N[C@@H](C)C(=O)N[C@H](C(=O)N[C@@H](CCCCN)C(=O)N[C@@H](C)C(=O)N[C@@H](C)C(=O)N[C@@H](CO)C(=O)N[C@@H](CC(N)=O)C(=O)N[C@H](C(=O)N[C@@H](C)C(=O)N[C@@H](CCC(=O)O)C(=O)N[C@@H](CC(C)C)C(=O)N[C@@H](C)C(=O)N[C@@H](Cc1c[nH]cn1)C(=O)NCC(=O)N[C@@H](CCC(=O)O)C(N)=O)C(C)C)C(C)C
MIC (broth microdilution; 36 h, 35 °C): > 7.99 µM

O=C(CCCN1CCC(O)(c2ccc(Cl)cc2)CC1)c1ccc(F)cc1
MIC (microbial growth, broth dilution; DSY654): 4 µg/mL

C=C1NC(=O)C2C[S+]([O-])CC3NC(=O)C(CSC(C)C(NC(=S)C(Cc4cnc[nH]4)NC(=O)c4csc(C(C)NC(C)=O)n4)C(=O)N[C@H](CC(C)C(=O)NC(=O)CC(C(=O)O)NC(=O)C(C)NC3=O)C(=O)N2)NC(=O)[C@@H]2CCCN2C(=O)[C@@H](CC(C)C)NC1=O (stereo partly drawn)
MIC (EUCAST broth microdilution; clinical isolate, RPMI 1640 with MOPS; pH 7.0, 37 °C, 2% glucose): > 32 µg/mL

Nc1ccccc1C(=O)OCC#CCOC(=O)c1ccccc1N
MIC: 4 µg/mL

CCOC(=O)C(Cc1ccccc1)NC(=O)N1CCN(CC(OCc2cccc(C)c2)c2ccc(Cl)cc2)CC1 (stereo not drawn)
MIC (DSY654 (Cdr efflux pump knockout); 24 h, 35 °C): 4 µg/mL

OC(Cn1cncn1)(Cn1cncn1)c1ccc(F)cc1F
MIC (CGMCC 2.209; 48 h, drug alone): 8 µM

COC(=O)c1ccc(COC(CN2CCN(C(=O)NCc3ccc(OC)cc3)CC2)c2ccc(Cl)cc2)cc1 (stereo not drawn)
MIC (DSY654 (Cdr efflux pump knockout); 24 h, 35 °C): 8 µg/mL

CCCCCCCCCCCC(=O)NCCCC[C@H](NC(=O)CCCCCCCCCCC)C(=O)N[C@@H](CCCCNC(=O)CCCCCCCCCCC)C(=O)NCC(=O)NCC(=O)NCC(=O)N[C@@H](CS)C(=O)N[C@@H](CCCNC(=N)N)C(=O)N[C@@H](CCCCN)C(=O)N1CCC[C@H]1C(=O)N[C@@H](CS)C(=O)N[C@@H](CCCNC(=N)N)C(=O)N[C@@H](CCCCN)C(=O)N1CCC[C@H]1C(N)=O
MIC (broth microdilution; fluconazole-resistant 56214, RPMI-1640; 48 h, 30 °C): > 128 µM

COC(=O)c1ccc(COC(CN2CCN(C(=O)Nc3ccccc3C)CC2)c2ccc(Cl)cc2)cc1 (stereo not drawn)
MIC (DSY654 (Cdr efflux pump knockout); 24 h, 35 °C): 4 µg/mL

CC(C)C[C@H](NC(=O)[C@H](CC(C)C)NC(=O)[C@H](CCCCN)NC(=O)CNC(=O)[C@H](CC(C)C)NC(=O)CNC(=O)[C@H](CO)NC(=O)[C@H](CC(C)C)NC(=O)[C@H](CC(C)C)NC(=O)[C@H](CO)NC(=O)[C@H](CCCCN)NC(=O)[C@H](CC(C)C)NC(=O)[C@H](CCCCN)NC(=O)[C@H](CCCCN)NC(=O)[C@H](CC(C)C)NC(=O)[C@H](CC(C)C)NC(=O)[C@H](CC(C)C)NC(=O)CNC(=O)[C@H](CO)NC(=O)[C@H](Cc1c[nH]c2ccccc12)NC(=O)[C@@H](N)CCCCN)C(=O)O
MIC (broth microdilution; ATCC 10231; 44 h, 37 °C): > 100 µM

CCCCCCCC(=O)NCCCC[C@H](NC(=O)CCCCCCC)C(=O)N[C@@H](CCCCNC(=O)CCCCCCC)C(=O)NCC(=O)NCC(=O)NCC(=O)N[C@@H](CS)C(=O)N[C@@H](CCCNC(=N)N)C(=O)N[C@@H](CCCCN)C(=O)N1CCC[C@H]1C(=O)N[C@@H](CS)C(=O)N[C@@H](CCCNC(=N)N)C(=O)N[C@@H](CCCCN)C(=O)N1CCC[C@H]1C(N)=O
MIC (broth microdilution; 56452, RPMI-1640; 48 h, 30 °C): 8 µM

CCC(=O)c1ccc(OCC(O)CN2CCN(C(c3ccccc3)c3ccccc3)CC2)cc1 (stereo not drawn)
MIC (microbial growth, broth dilution; DSY654): 8 µg/mL

Excerpt of the above:
CC[C@H](C)[C@H](NC(=O)[C@H](CCCCN)NC(=O)[C@@H](NC(=O)[C@@H](NC(=O)[C@H](CC(C)C)NC(=O)[C@H](CCCNC(=N)N)NC(=O)[C@@H](NC(=O)[C@H](CC(C)C)NC(=O)[C@H](CCCNC(=N)N)NC(=O)CNC(=O)[C@H](Cc1ccccc1)NC(=O)[C@@H](N)CCCNC(=N)N)[C@@H](C)CC)[C@@H](C)CC)C(C)C)C(=O)N[C@@H](C)C(=O)N[C@@H](CCCNC(=N)N)C(=O)N[C@@H](CCCNC(=N)N)C(=O)N[C@@H](C)C(=O)N[C@@H](Cc1c[nH]cn1)C(=O)N[C@@H](CCCNC(=N)N)C(=O)N[C@@H](C)C(=O)N[C@@H](CCCNC(=N)N)C(=O)N[C@@H](CO)C(=O)N[C@@H](C)C(=O)N[C@H](C(=O)N[C@@H](CCCCN)C(=O)N[C@@H](C)C(=O)N[C@@H](C)C(=O)N[C@@H](CO)C(=O)N[C@@H](CC(N)=O)C(=O)N[C@H](C(=O)N[C@@H](C)C(=O)N[C@@H](C)C(=O)N[C@@H](CC(C)C)C(=O)N[C@@H](C)C(=O)N[C@@H](Cc1c[nH]cn1)C(=O)NCC(=O)N[C@@H](C)C(=O)O)C(C)C)C(C)C
MIC (broth microdilution; 36 h, 35 °C): > 8.25 µM
